Published values pooled from the literature.
Each line is one published result; not all experiments were run side by side. “And” joins repeats or separate records; there may be more than shown.

Substance | target or system | test | system | conditions | how to read | measurement | value
CCOc1nc(N)ncc1-c1cn([C@@H]2O[C@](F)(CO[P@@](=O)(N[C@@H](C)C(=O)OC(C)C)Oc3ccccc3)[C@@H](O)[C@H]2O)cn1 | Zaire ebolavirus | viral replication, reporter virus | Huh-7 | 72 h |  | IC50 | > 100 µM
TLHEYMLDV | HPV16 E7-specific T-cell line | ELISA | peptide, supernatant | concentration not given, 24 h, together with: peptide-pulsed autologous B cells |  | IFN-γ release | 95.3 pg/mL
HSP90 fragment G515A (Plasmodium falciparum) | itself | mass photometry |  |  |  | subunits per oligomer | 2
COc1ncc(-c2cn([C@@H]3O[C@](F)(COC(=O)C(C)C)[C@@H](OC(=O)C(C)C)[C@H]3OC(=O)C(C)C)cn2)cn1 | Zaire ebolavirus | viral replication, reporter virus | Huh-7 | 72 h |  | IC50 | > 100 µM
YMLDLQPEV | HPV16 E7-specific T-cell line | ELISA | peptide, supernatant | concentration not given, 24 h, together with: peptide-pulsed autologous B cells |  | IFN-γ release | 230 pg/mL
CC[C@@]1(O)C(=O)OCc2c1cc1n(c2=O)Cc2cc3cc(O)ccc3nc2-1 | MERS-CoV spike VSV pseudovirus | pseudovirus entry |  | 10 µM |  | inhibition | 39%
COc1cc2ncnc(Nc3cccc(Cl)c3)c2cc1OC | Monkeypox virus | viral infection | replication-deficient | 33.33 µM | reference: untreated | infection | 0.05% and 0.022% and 0.04%
HSP90 fragment D545A (Plasmodium falciparum) | itself | mass photometry |  |  |  | subunits per oligomer | 2

Repeated from above:
Substance | target or system | test | system | conditions | how to read | measurement | value
CC[C@@]1(O)C(=O)OCc2c1cc1n(c2=O)Cc2cc3cc(O)ccc3nc2-1 | MERS-CoV spike VSV pseudovirus | pseudovirus entry |  | 10 µM |  | inhibition | 39%
